{"data": "Published values gathered from unrelated publications", "note": "Each line is one published result; not all experiments were run side by side. Several values in a cell are separate wells, animals, samples, runs or records. ± marks the error that the study gave."}
{"Molecule": "CCCC[C@H](NC(=O)COCCOCCNC(=O)CN1CCN(CC(=O)O)CCN(CC(=O)O)CC1)C(=O)N[C@H]1CC(=O)NCCCC[C@@H](C(N)=O)NC(=O)[C@H](Cc2c[nH]c3ccccc23)NC(=O)[C@H](CCCNC(=N)N)NC(=O)[C@@H](Cc2ccccc2)NC(=O)[C@H](Cc2c[nH]cn2)NC1=O [technetium-99m labelled]", "system": "C57 mouse, kidneys", "setting": "intravenous, 0.037 MBq, 4 h", "quantity": "tissue uptake", "result": "0.73 ± 0.14 %ID/g"}
{"Molecule": "CC(C)C[C@H](NC(=O)[C@@H](CCCCNC(=O)[C@@H](Cc1ccccc1)NC(=O)CCCCCNC(=O)CN1CCN(CC(=O)O)CCN(CC(=O)O)CCN(CC(=O)O)CC1)NC(=O)[C@H](Cc1ccc(O)cc1)NC(=O)[C@H](CO)NC(=O)[C@H](Cc1c[nH]c2ccccc12)NC(=O)[C@H](Cc1c[nH]cn1)NC(=O)[C@@H]1CCC(=O)N1)C(=O)N[C@@H](CCCNC(=N)N)C(=O)N1CCC[C@H]1C(=O)NCC(N)=O [indium-111 labelled]", "system": "female athymic nude mice, pancreas", "setting": "intravenous, 0.037 MBq, 0.5 h", "quantity": "tissue uptake", "result": "0.29 ± 0.14 %ID/g"}
{"Molecule": "CC(C)C[C@H](NC(=O)[C@H](Cc1ccc(O)cc1)NC(=O)[C@@H](CCCNC(=N)N)NC(=O)[C@@H](CO)NC(=O)[C@H](Cc1ccccc1)NC(=O)[C@H](CC1CCCCC1)NC(=O)[C@H](CC(=O)O)NC(=O)CN1CCN(CC(=O)O)CCN(CC(=O)O)CCN(CC(=O)O)CC1)C(=O)N[C@@H](Cc1c[nH]c2ccccc12)C(=O)N[C@@H](CO)C(=O)O [copper-64 labelled]", "system": "human, adrenal", "setting": "concentration not given, 1 h", "quantity": "activity concentration", "result": "3960 Bq/mL and 1690 Bq/mL and 3890 Bq/mL and 1800 Bq/mL and 2560 Bq/mL and 2950 Bq/mL"}
{"Molecule": "CC(C)C[C@H](NC(=O)[C@@H](CCCCNC(=O)CCCCCCCCCCNC(=O)CN1CCN(CC(=O)O)CCN(CC(=O)O)CCN(CC(=O)O)CC1)NC(=O)[C@H](Cc1ccc(O)cc1)NC(=O)[C@H](CO)NC(=O)[C@H](Cc1c[nH]c2ccccc12)NC(=O)[C@H](Cc1cnc[nH]1)NC(=O)[C@@H]1CCC(=O)N1)C(=O)N[C@@H](CCCN=C(N)N)C(=O)N1CCC[C@H]1C(=O)NCC(N)=O [indium-111 labelled]", "system": "athymic nude mouse, female, intestines", "setting": "intravenous, 0.037 MBq, 0.5 h", "quantity": "tissue uptake", "result": "2.13 ± 0.18 %ID"}
{"Molecule": "C=C1CC[C@H](OCCCNC(=O)CCOCCOCCOCCOCCOCCOCCOCCOCCOCCOCCOCCOCCOCCOCCOCCOCCOCCOCCOCCOCCOCCOCCOCCOCCOCCOCCOCCOCCOCCOCCOCCOCCOCCOCCOCCOCCNC(=O)CCN2C(=O)CC(SC[C@H](NC(=O)[C@H](Cc3ccccc3)NC(=O)[C@H](CC(N)=O)NC(=O)[C@H](Cc3c[nH]cn3)NC(=O)[C@@H](NC(=O)[C@H](CC(=O)O)NC(=O)[C@H](CCC(N)=O)NC(=O)[C@H](CC(C)C)NC(=O)[C@H](CCCCN)NC(=O)[C@H](CCCCN)NC(=O)[C@H](CCCNC(=N)N)NC(=O)[C@H](CC(C)C)NC(=O)[C@H](Cc3c[nH]c4ccccc34)NC(=O)[C@H](CCC(=O)O)NC(=O)[C@@H](NC(=O)[C@H](CCCNC(=N)N)NC(=O)[C@H](CCC(=O)O)NC(=O)[C@H](CCSC)NC(=O)[C@H](CO)NC(=O)[C@H](CC(N)=O)NC(=O)[C@H](CC(C)C)NC(=O)[C@H](Cc3c[nH]cn3)NC(=O)[C@H](CCCCN)NC(=O)CNC(=O)[C@H](CC(C)C)NC(=O)[C@H](CC(N)=O)NC(=O)[C@H](Cc3c[nH]cn3)NC(=O)[C@H](CCSC)NC(=O)[C@H](CC(C)C)NC(=O)[C@H](CCC(N)=O)NC(=O)[C@@H](NC(=O)[C@H](CCC(=O)O)NC(=O)[C@H](CO)NC(=O)[C@@H](NC(=O)[C@@H](N)CO)C(C)C)[C@@H](C)CC)C(C)C)C(C)C)C(=O)O)C2=O)C/C1=C/C=C1\\CCC[C@]2(C)[C@@H]([C@H](C)CCCC(C)(C)O)CC[C@@H]12 (stereo partly drawn)", "system": "male cynomolgus monkey, plasma", "setting": "intravenous, 0.02 mg/kg, single dose", "quantity": "Cmax", "result": "789 ng/mL"}
{"Molecule": "C[C@@H](O)[C@@H]1NC(=O)[C@H](CCCCN)NC(=O)[C@@H](Cc2c[nH]c3ccccc23)NC(=O)[C@H](Cc2ccc(O)cc2)NC(=O)[C@@H](NC(=O)[C@@H](Cc2ccccc2)NC(=O)CN2CCN(CC(=O)O)CCN(C(=O)CCNC(=O)c3ncn4c(=O)n(C)nnc34)CCN(CC(=O)O)CC2)CSSC[C@@H](C(=O)N[C@H](CO)[C@@H](C)O)NC1=O [gallium-68 labelled]", "assay": "ex vivo gamma counting", "system": "mouse, HCT116-WT/SSTR2 xenografts, HCT116-SSTR2 tumour", "setting": "intravenous, 2 nmol, 1 h", "quantity": "tissue uptake", "result": "5.92 ± 0.82 %ID/g"}
{"Molecule": "CCCC[C@H](NC(=O)CCCCCCCNC(=O)CN1CCN(CC(=O)O)CCN(CC(=O)O)CC1)C(=O)N[C@H]1CC(=O)NCCCC[C@@H](C(N)=O)NC(=O)[C@H](Cc2c[nH]c3ccccc23)NC(=O)[C@H](CCCNC(=N)N)NC(=O)[C@@H](Cc2ccccc2)NC(=O)[C@H](Cc2c[nH]cn2)NC1=O [technetium-99m labelled]", "system": "C57 mouse, stomach", "setting": "intravenous, 0.037 MBq, 2 h", "quantity": "tissue uptake", "result": "0.95 ± 0.5 %ID/g"}
{"Molecule": "nucleophosmin S112E", "assay": "far-UV CD, CDSSTR", "system": "Tris buffer, NaCl", "setting": "pH 7.5, room temperature", "quantity": "beta-strand content", "result": "17%"}
{"Molecule": "C[C@@H](O)[C@@H]1NC(=O)[C@H](CCCCN)NC(=O)[C@@H](Cc2c[nH]c3ccccc23)NC(=O)[C@H](Cc2ccc(O)cc2)NC(=O)[C@@H](NC(=O)[C@@H](Cc2ccccc2)NC(=O)CN2CCN(CC(=O)O)CCN(CC(=O)O)CCN(CC(=O)O)CC2)CSSC[C@@H](C(=O)N[C@H](CO)[C@@H](C)O)NC1=O [gallium-67 labelled]", "assay": "gamma counting", "system": "ICR mice, male, muscle", "setting": "iv, 11 kBq/mouse, 3 h", "quantity": "tissue uptake", "result": "0.08 ± 0.03 %ID/g"}
